# Measurements pooled from the literature.
# A part holds a random share of what one study measured.

# Set 1
# Target: Interferon regulatory factor 7, full length, phosphomimetic (IRF7, Homo sapiens, UniProt Q92985, residues 1-503, S101K/S471D/S472D/S475D/S476D/S477D/S483D/S484D/S487D)
# Chain of UniProt Q92985 (whole entry, unmodified, looked up): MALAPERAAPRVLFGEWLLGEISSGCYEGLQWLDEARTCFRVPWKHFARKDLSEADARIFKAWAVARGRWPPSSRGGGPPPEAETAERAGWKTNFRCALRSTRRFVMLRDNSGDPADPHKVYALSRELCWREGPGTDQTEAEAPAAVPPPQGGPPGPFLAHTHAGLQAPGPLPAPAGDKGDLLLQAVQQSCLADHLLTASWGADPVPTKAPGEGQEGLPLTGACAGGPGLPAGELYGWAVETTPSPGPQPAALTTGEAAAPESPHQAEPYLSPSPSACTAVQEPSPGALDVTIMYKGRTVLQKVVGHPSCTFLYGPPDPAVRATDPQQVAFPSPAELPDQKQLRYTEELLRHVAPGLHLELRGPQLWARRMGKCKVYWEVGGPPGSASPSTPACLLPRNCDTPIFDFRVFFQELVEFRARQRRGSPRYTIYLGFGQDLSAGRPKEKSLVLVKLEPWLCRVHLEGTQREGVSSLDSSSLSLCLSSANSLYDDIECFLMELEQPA
# Technique: protein-binding microarray
# Form: double-stranded DNA, one strand shown
# Medium: in vitro
# Concentration: 250 nM
# Notes: 60-bp whole probe
# Added: salmon DNA 0.4 mg/ml
# Relative to: random background probes
# Reading: higher = stronger binding
# Shared flanks, not repeated: GCCTAGCAC … GTCTTGATTCGCTTGACGCTGCTG
Strand,log fluorescence
GACGCTATCGACTATCGGGACGTGCTA,-0.417 z-score
GACGAACTGAGTCTCTAGACGTGCTAG,-0.393 z-score
GACGGTATCCTTATCCTGGCGTGCTAG,0.204 z-score
GACGACTTCGGGTATCGAGACGTGCTA,-0.241 z-score
TTAGGTCTCGGTTTCGGTCAGTGCTAG,7.6 z-score
TTAGGTTTTGGGTATCGGTTAGTGCTA,1.52 z-score
GACGGTTTTGGACTGGGGACGTGCTAG,0.429 z-score

# Set 2
# Target: Sal-like protein 4, full length isoform A (SALL4, Homo sapiens, UniProt Q9UJQ4, residues 1-1053)
# Chain of UniProt Q9UJQ4 (whole entry, looked up): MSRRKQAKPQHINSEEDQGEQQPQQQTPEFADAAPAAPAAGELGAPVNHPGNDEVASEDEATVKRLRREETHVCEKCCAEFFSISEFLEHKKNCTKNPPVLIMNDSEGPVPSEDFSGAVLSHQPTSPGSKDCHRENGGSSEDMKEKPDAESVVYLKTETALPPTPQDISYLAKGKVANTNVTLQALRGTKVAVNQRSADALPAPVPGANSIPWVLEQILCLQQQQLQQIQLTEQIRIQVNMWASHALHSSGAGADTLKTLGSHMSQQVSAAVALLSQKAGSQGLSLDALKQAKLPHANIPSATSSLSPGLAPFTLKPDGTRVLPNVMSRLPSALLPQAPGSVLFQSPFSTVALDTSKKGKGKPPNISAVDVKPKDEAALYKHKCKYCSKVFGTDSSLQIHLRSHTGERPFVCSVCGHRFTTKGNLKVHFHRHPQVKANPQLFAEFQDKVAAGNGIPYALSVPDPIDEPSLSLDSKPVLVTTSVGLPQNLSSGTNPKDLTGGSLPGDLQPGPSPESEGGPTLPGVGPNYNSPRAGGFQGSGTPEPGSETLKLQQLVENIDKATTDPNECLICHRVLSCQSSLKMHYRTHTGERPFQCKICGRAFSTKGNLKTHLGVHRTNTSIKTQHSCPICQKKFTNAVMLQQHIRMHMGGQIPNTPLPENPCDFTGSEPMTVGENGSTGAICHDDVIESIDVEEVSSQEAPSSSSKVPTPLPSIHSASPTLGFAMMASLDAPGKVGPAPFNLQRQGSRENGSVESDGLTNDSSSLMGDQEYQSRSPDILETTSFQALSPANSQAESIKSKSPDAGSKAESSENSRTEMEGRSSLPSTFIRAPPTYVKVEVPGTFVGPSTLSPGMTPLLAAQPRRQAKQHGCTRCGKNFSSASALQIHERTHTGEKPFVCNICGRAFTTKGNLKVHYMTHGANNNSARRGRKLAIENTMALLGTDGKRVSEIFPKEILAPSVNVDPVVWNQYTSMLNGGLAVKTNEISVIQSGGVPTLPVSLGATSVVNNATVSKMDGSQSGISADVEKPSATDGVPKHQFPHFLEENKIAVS
# Technique: universal PBM
# Form: double-stranded DNA, one strand shown
# Medium: in vitro
# Concentration: 600 nM
# Notes: 8-mer, flanks averaged, mean of replicates
# Reading: higher = stronger binding
Strand,E-score
GCCCATCA,-0.186
CCCCAAAC,-0.11
ACGGCATC,-0.151
CTCGCGAC,-0.186
ATTGTAAG,0.254
ACTTCTCT,0.141
CCATACCA,-0.0435
CTACTGTA,0.103

# Set 3
# Target: FOXO3, forkhead domain (mouse, UniProt Q9WVH4, residues 31-263)
# Chain of UniProt Q9WVH4 (31-263, looked up): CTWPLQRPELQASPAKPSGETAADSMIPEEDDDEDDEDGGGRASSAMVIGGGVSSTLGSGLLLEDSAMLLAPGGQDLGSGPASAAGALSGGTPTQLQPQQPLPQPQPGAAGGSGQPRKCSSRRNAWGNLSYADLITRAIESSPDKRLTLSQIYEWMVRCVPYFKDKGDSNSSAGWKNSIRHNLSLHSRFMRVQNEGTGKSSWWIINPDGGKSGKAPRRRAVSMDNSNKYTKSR
# Technique: protein-binding microarray
# Form: hairpin DNA
# Medium: in vitro
# Concentration: not given
# Notes: whole hairpin DNA, median over replicate spots
# Relative to: not given
# Reading: higher = stronger binding
# Shared flanks, not repeated: GAGGCCATG … CATGGCCTCACACTC
Strand,median fluorescence [a.u.]
TAACCAATGCCTCCTGGCATTGGTTA,3700
CATACAACGCCTCCTGGCGTTGTATG,4090
CAAACCACGCCTCCTGGCGTGGTTTG (5mC at 15),4440
TAAACACCGCCTCCTGGCGGTGTTTA (5mC at 16),5200
TAAATAACGCCTCCTGGCGTTATTTA,4150

# Further values, each from its own experiment
Substance,target,assay,system,conditions,how to read,quantity,result
"PhoQ, residues 284 288 289 292 302 303 GNNTDL","PhoP, residues 12 14 15 18 19 HEGLL (Escherichia coli, UniProt P23836)","Sort-seq, item: YFP reporter",E. coli,"PhoQ-PhoP variant library, added: 10 µM Mg2+","relative to: high Mg2+ state, higher = stronger signaling",fold induction,3.07

# A few entries again (set 3):
Strand,median fluorescence [a.u.]
CAAACCACGCCTCCTGGCGTGGTTTG (5mC at 15),4440
